Measured values of several laboratories.
Compare with care: the assays were run in different laboratories. Numbers after ± are the reported error.
UCHL1: Ubiquitin carboxyl-terminal hydrolase isozyme L1 (UCHL1, Homo sapiens, UniProt P09936)
Sequence of UniProt P09936 (whole entry, looked up): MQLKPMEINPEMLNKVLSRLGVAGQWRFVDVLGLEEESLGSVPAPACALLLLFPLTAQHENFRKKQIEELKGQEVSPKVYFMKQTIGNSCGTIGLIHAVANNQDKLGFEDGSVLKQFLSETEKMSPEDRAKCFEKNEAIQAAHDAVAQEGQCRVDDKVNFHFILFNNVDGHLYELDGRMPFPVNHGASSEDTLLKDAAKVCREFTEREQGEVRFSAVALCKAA

Structure (SMILES)	target or system	test	system	setting	scale	endpoint	value
OC[C@H]1O[C@@H](Oc2cc3c(O)cc(O)cc3[o+]c2-c2ccc(O)cc2)[C@H](O)[C@@H](O)[C@@H]1O	HIV-1	viral infection	TZM-bl, NL4-3 (CXCR4-tropic)	48 h	–	IC50	> 100 µM
CCCC(=O)OCSc1ccccc1C(=O)NCCOc1ccnc2ccc(C(F)(F)F)cc12	HIV-1	virus-induced cytopathic effect, inhibitor, XTT	CEM-SS, RF	6 days	–	EC50	> 81.9 µM
COc1cc(Br)cc(/C=N/NC(=O)c2ccccn2)c1O	HIV-1	viral cytopathic effect, MTT	MT4, IIIB	–	–	EC50	> 22 µM
OC[C@H]1O[C@@H](Oc2cc3c(O)cc(O)cc3[o+]c2-c2ccc(O)c(O)c2)[C@H](O)[C@@H](O)[C@H]1O	HIV-1	viral infection	TZM-bl, NL4-3 (CXCR4-tropic)	48 h	–	IC50	56 µM
CCCC(=O)OCSc1ccccc1C(=O)NCCn1ccc(=O)c2cc(C)ccc21	HIV-1	viral replication, refers to: reverse transcriptase	human PBMC, 92HT599	7 days	–	EC50	1.45 ± 1.4 µM
C/C(=N\Nc1ccc(S(=O)(=O)Nc2ccccc2)cc1[N+](=O)[O-])c1cc(O)ccc1O	HIV-1	viral cytopathic effect, MTT	MT4, IIIB	–	–	EC50	> 28 µM
CCCC(=O)OCSc1ccccc1C(=O)NCCn1ccc(=O)c2cc3c(cc21)OCO3	HIV-1	viral replication, refers to: reverse transcriptase	human PBMC, 92HT599	7 days	–	EC50	0.47 ± 0.11 µM
Cc1ccc(-c2ccc3c(c2)C=C(C(=O)Nc2ccc(C[N+](C)(C)C4CCOCC4)cc2)CCC3)cc1	HIV-1	viral attachment	MAGI, Ba-L	washout 3 h post infection	–	IC90	0.06 µM
CCCC(=O)OCSc1ccccc1C(=O)NCCn1ccc(=O)c2cc(F)ccc21	HIV-1	viral replication, refers to: reverse transcriptase	human PBMC, 92HT599	7 days	–	EC50	2.35 ± 0.38 µM
CC1CC(C)CN(CCOCCSc2ccccc2)C1 (stereo not drawn)	Trypanosoma cruzi	reporter translation, Renilla luciferase mRNA translation	cell-free extract	40 µM	reference: DMSO	inhibition	-9.1%
Cc1nnc(NN)c2c1[nH]c1ccccc12	HIV-1	viral cytopathic effect, MTT	MT4, IIIB	–	–	EC50	> 50 µM
COc1ccc(-c2ccc(Cc3cnc(Nc4ccc(C#N)cc4)o3)cc2)cc1	HIV-1	protection from infection	MT-2, IIIB wild type	concentration not given	–	antiviral activity	inactive
C[C@@H]1O[C@@H](OC[C@H]2O[C@@H](Oc3cc4c(O)cc(O)cc4[o+]c3-c3cc(O)c(O)c(O)c3)[C@H](O)[C@@H](O)[C@@H]2O)[C@H](O)[C@H](O)[C@H]1O	HIV-1	viral infection	TZM-bl, BaL (CCR5-tropic)	48 h	–	IC50	97.5 µM
O=C(N/N=C/c1cccnc1)C1=NNC2CCCCC12 (stereo not drawn)	HIV-1	viral cytopathic effect, MTT	MT4, IIIB	–	–	EC50	> 20 µM
COc1ccnc2[nH]cc(C(=O)C(=O)N3CCN(C(=O)c4ccccc4)C[C@H]3C)c12	HIV-1	viral replication, inhibitor, pseudovirus neutralization	TZM-bl, 3365.v2.c20	48 h	–	IC50	> 20 µM
O=c1c(O[C@@H]2O[C@H](CO)[C@@H](O)[C@H](O)[C@H]2O)c(-c2ccc(O)cc2)oc2cc(O)cc(O)c12	HIV-1	viral infection	TZM-bl, BaL (CCR5-tropic)	48 h	–	IC50	> 100 µM
CCCC(=O)OCSc1ccccc1C(=O)NCCn1cc(C(=O)NCc2cccc(C)n2)c(=O)c2cc3c(cc21)OCO3	HIV-1	virus-induced cytopathic effect, inhibitor, XTT	CEM-SS, RF	6 days	–	EC50	0.48 ± 0.01 µM
O=C(/C=C/c1ccc(O)c(O)c1)O[C@H]1[C@H](O)C[C@](O)(C(=O)O)C[C@H]1O	HIV-1	viral infection	TZM-bl, NL4-3 (CXCR4-tropic)	48 h	–	IC50	> 100 µM
CCCC(=O)OCSc1ccccc1C(=O)NCCn1ccc(=O)c2cc(Cl)ccc21	HIV-1	virus-induced cytopathic effect, inhibitor, XTT	CEM-SS, RF	6 days	–	EC50	1.94 ± 0.22 µM
CCc1ccc(NC(=O)C(C#N)=Cc2ccn(-c3ccccc3)n2)cc1	UCHL1	covalent, intact protein LC-MS	–	12.5 µM	–	labelling	12.8%
CCCC(=O)OCSc1ccccc1C(=O)NCCC(=O)NCCn1ccc(=O)c2cc3c(cc21)OCO3	HIV-1	virus-induced cytopathic effect, inhibitor, XTT	CEM-SS, RF	6 days	–	EC50	80.9 ± 21.7 µM
O=c1c(O[C@@H]2O[C@H](CO)[C@@H](O)[C@H](O)[C@H]2O)c(-c2ccc(O)c(O)c2)oc2cc(O)cc(O)c12	HIV-1	viral infection	TZM-bl, BaL (CCR5-tropic)	48 h	–	IC50	> 100 µM
Cc1ccc(-c2cn(Cc3cccc(Cl)c3)c3[n+]2CCC3)cc1.[Br-]	Trypanosoma cruzi	reporter translation, Renilla luciferase mRNA translation	cell-free extract	40 µM	reference: DMSO	inhibition	-4.2%
C/C(=N\NC(=O)C1CCCCC1)c1ccccc1O	HIV-1	viral cytopathic effect, MTT	MT4, IIIB	–	–	EC50	> 20 µM
CC1CCCN(C(=O)C(NC(=O)C(C)Cl)c2cnn(C)c2)C1 (stereo not drawn)	UCHL1	covalent, intact protein LC-MS	–	12.5 µM	–	labelling	10.5%
C/C(=N\N1CCN(Cc2ccccc2Cl)CC1)c1ccc([N+](=O)[O-])cc1	HIV-1	viral cytopathic effect, MTT	MT4, IIIB	–	–	EC50	> 100 µM
OC[C@H]1O[C@@H](O[C@H]2[C@H](Oc3cc4c(O)cc(O)cc4[o+]c3-c3ccc(O)c(O)c3)O[C@H](CO)[C@@H](O)[C@@H]2O)[C@H](O)[C@@H](O)[C@@H]1O	HIV-1	viral infection	TZM-bl, NL4-3 (CXCR4-tropic)	48 h	–	IC50	53.3 µM
